Measurements from different studies.
Every numbered part comes from another study and shows a few of its results, in no order. Positions count from the first letter of the parent shown.

Series 1 — target: CCNA1, cyclin fold, Cln2 fusion (human); technique: yeast growth competition, sequencing; sample: yeast; setting: weak parent motif; reference: not given; reading: higher = stronger binding
Starting sequence: DBF4B docking peptide (human); LGYLYLLLTQSLW
Variant | normalised enrichment score
LGYLYLLLTQALW [S11A] | 0.217
LGYLYALLTQSLW [L6A] | -0.376
LAYLYLLLTQSLW [G2A] | -0.22
LGYLYLLLTQSAW [L12A] | -0.24
LGYLYLLLTASLW [Q10A] | 0.241
AGYLYLLLTQSLW [L1A] | -0.154
LGYLYLLLTQSLA [W13A] | -0.336

Series 2 — technique: protein binding microarray; form: double-stranded DNA, one strand shown; sample: in vitro; concentration: not given; reference: not given; reading: higher = stronger binding
Target: Histone acetyltransferase KAT6A, both winged helices, GST fusion (KAT6A, Homo sapiens, UniProt Q92794, residues 1-181)
Setting: 8-mer, flanks averaged, mean of 2 arrays, mostly near background
Construct (chain): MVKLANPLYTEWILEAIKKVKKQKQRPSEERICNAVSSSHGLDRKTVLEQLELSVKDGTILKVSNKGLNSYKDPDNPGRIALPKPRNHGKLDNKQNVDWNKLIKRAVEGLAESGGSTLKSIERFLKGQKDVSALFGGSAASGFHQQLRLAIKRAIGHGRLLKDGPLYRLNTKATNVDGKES
Strand | E-score
AGTTGCAT | -0.132
TAGTGACA | -0.154
CGCGAATC | 0.238
ATCAAAAC | 0.0271
AGTGCACA | -0.137
CTGTGCAC | 0.0448
CTGCTTGC | 0.0069
ACTTGGAT | -0.135
CAAATCTC | -0.0428
TATCCCCA | -0.259
CACTGGAC | 0.0179
GCGACGGA | 0.282
AAGCTCAT | -0.0747
CTCCGACC | 0.0839
CGAATGGA | -0.25
CCAAAACC | -0.0261
CCCCAAAG | -0.193
AGGTTTAG | -0.166
AACCGTAA | 0.283
ACCTTTTC | -0.195
ACGCACCC | 0.153
TAGTCCGA | 0.0865
GGCTTTAC | 0.197
CACACCGG | 0.113
AGCGGAAC | 0.27

Series 3 — technique: RNA Bind-n-Seq; form: RNA; sample: in vitro; concentration: not given; reference: input RNA pool; reading: higher = stronger binding
Target: RING finger protein unkempt homolog, zinc fingers 1-6, GST-SBP tag (UNK, Homo sapiens, UniProt Q9C0B0, residues 30-357)
Chain of UniProt Q9C0B0 (30-357, looked up): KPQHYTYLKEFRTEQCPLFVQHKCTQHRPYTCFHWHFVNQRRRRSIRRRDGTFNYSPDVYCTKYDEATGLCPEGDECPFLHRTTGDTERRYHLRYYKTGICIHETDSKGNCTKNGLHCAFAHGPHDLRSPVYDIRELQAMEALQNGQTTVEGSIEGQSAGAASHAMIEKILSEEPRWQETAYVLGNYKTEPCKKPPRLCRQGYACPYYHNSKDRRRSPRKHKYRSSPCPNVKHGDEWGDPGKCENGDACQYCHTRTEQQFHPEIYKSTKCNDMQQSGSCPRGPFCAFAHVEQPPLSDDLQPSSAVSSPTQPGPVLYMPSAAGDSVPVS
Setting: RNA with constant flanks, human-mouse chimeric sites, ends assumed
All sequences stand within: GGGAGUUCUACAGUCCGACGAUC … CAACAGAGGAUUGAGCAUCA
Strand | bound/input enrichment [ratio]
CAGUCCCCGUGUCCCAGGGGACAAUGUUGUGAACAAAAACUCAAAGCGGACCCUCUAUUGUAGUUCUUGAUUCUCGAAAUGUGCUAUUAUUGUUUGUCUUUUUUUUUAAAAGAAAAGAGA | 0.962
GAGUCGAGCAAACUUGAAACAAUUCGUUAUCUUGCAGAGCUUCGGUGCACUUGCUUGUGGCAAUAGCUGGGGUUUUAUAGGUUCUGGAAGGAGAACUGACGAUGAUGCUGCCGCUGCUGC | 0.7
AUGGUUGUGUCUCUUGAUUGGGGUCUACAAGAUGACUUUUCCUGGCACAUAUUCCAAAGCAAAGACUUUGUUGCCUGCUGCUUAUUGUCUAAUUUACAGGGAUAUUUAAUUUUGUCAGGU | 0.266
GUACUGCAACAGCAGGGAAAACUGCAGGAAGCUCUGAUGCAUUAUAAAGAAGCCAUACGAAUCAGUCCUACCUUUGCUGAUGCCUACUCUAAUAUGGGAAACACUCUAAAGGAGAUGCAG | 0.205
ACCAUUUUCGCGGUUCAGGCUUUGUGUGUAGUUCACUUACGGUAUUAAAUUAUUAUUCUGCUUAGCUUAAAGUAAGGAUAAUUGCAUUUAAAGAGGUGAUCACUGAAUACUCUGAAACUU | 0.306
CAGUCCCCGUGUCCCAGUGCAGGACGAGAACAUGGACAACUCAAAGCGGACCCUCUAUUGUAGUUCUUGAUUCUCGAGUGCCAUUAUUAUUGUUUGUCUUUUUUUUUUUUUUUUUAAAGA | 1.08
CGCUGGCCCAAGCUGAUGUAAAUGUUUGGCCUCCAUCUCUCAGGCACGUGUGCCUUCUCUUAGUCCCUUCUGGGUUGAUGUUAUGAAUCUCAGUACUGUGGUUUGAAAGCACCAGCUUUG | 0.47
GAUCAUGAACCACCAUCCAGAAAUGAAGAUGAGACUACCAGACGAGCCAAAACAGCUGCGCUACAGAAAAGUAAACUUAACCUUGCAGAGUUCCUUAAUGAAGAUACAAGUUAAGAGAGC | 0.128

Series 4 — technique: DHFR PCA, deep sequencing; sample: yeast; with: (+)-ABA 4.8 µM; reference: wild-type fitted maximum; reading: higher = stronger binding
Target: ABI1, truncated, D143A, DHFR fusion (Arabidopsis thaliana)
Setting: methotrexate growth selection, single substitutions
Starting sequence: PYL1, truncated, DHFR fusion (Arabidopsis thaliana); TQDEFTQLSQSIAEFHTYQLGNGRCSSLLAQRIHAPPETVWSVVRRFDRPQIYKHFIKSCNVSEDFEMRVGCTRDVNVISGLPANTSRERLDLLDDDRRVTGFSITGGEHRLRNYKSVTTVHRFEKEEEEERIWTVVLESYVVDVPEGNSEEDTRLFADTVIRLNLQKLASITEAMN
Variant | relative binding score
Y18S | 32.5%
H16C | 4.67%
R132K | 92%
F56D | 7.7%
L93N | 8.8%
P36V | 20.8%
N114T | -1.74%
E174G | 10.6%
E67F | 44.6%
K126T | 90.5%
L166P | 14.1%
V100L | 29.2%
R74Y | -3.18%
E139S | 33.3%
R90H | 13%

Excerpt of the above (series 2):
Strand | E-score
CAAATCTC | -0.0428
AGCGGAAC | 0.27
TAGTCCGA | 0.0865
AACCGTAA | 0.283
CTGCTTGC | 0.0069
CGCGAATC | 0.238
CCAAAACC | -0.0261
ACTTGGAT | -0.135
CTCCGACC | 0.0839
